# Measurements gathered from unrelated publications.
# Protocols differ between the studies behind these lines. ± gives the spread as reported.
# Cell line: NCI/ADR-RES
Compound,test,setting,quantity,result
CC/C=C\C/C=C\C/C=C\C/C=C\C/C=C\C/C=C\CCC(=O)Nc1ccn(C2OC(CO)C(O)C2(F)F)c(=O)n1 (stereo not shown),"cell growth or viability, SRB",,GI50,33.8 nM
CC(=C(c1ccc(O)cc1)c1ccc(Cl)cc1)c1ccc(Cl)cc1,cell growth or viability,,GI50,690 nM
CC(=O)OC[C@H]1O[C@@H](Sc2sc(C(=O)c3ccc(Br)cc3)c(N)c2-c2nc3ccccc3s2)[C@H](OC(C)=O)[C@@H](OC(C)=O)[C@H]1OC(C)=O,SRB,"10 µM, 48 h",growth,88.3%
COc1cc(CNC(=O)C[C@H](C)CCC=C(C)C)ccc1OCc1cn(-c2ccc(Cl)cc2Cl)nn1,SRB,"10 µM, 48 h",growth,32.9%
CC(=O)OC[C@H]1O[C@@H](Sc2sc(C(=O)c3ccc(C)cc3)c(N)c2-c2nc3ccccc3s2)[C@H](OC(C)=O)[C@@H](OC(C)=O)[C@@H]1OC(C)=O,SRB,"10 µM, 48 h",growth,62.9%
COc1ccc(C2=Nn3c(NN=C4C(=O)N(Cc5ccccc5)c5ccc(Cl)cc54)nnc3SC2)cc1,"cell growth or viability, SRB",10 µM,inhibition,13%
COc1cc(CNC(=O)C[C@H](C)CCC=C(C)C)ccc1OCc1cn(-c2cccc([N+](=O)[O-])c2)nn1,sulforhodamine B,"10 µM, 48 h",growth percent,3.67%
C=C1C(=O)OC2C1CCC1(C)CC1CCC1(C)OC21 (stereo not shown),"cell growth, inhibitor, Alamar blue",,IC50,12 ± 2.5 µM
COc1cc(CNC(=O)C[C@H](C)CCC=C(C)C)ccc1OCc1cn(-c2ccccc2)nn1,SRB,"10 µM, 48 h",growth,81.9%
CC(Cc1ccc(Cl)cc1)=C(c1ccc(Cl)cc1)c1ccc(OCCN(C)C)cc1,cell growth or viability,,GI50,4800 nM

# Some of these lines once more:
Compound,test,setting,quantity,result
CC(=O)OC[C@H]1O[C@@H](Sc2sc(C(=O)c3ccc(Br)cc3)c(N)c2-c2nc3ccccc3s2)[C@H](OC(C)=O)[C@@H](OC(C)=O)[C@H]1OC(C)=O,SRB,"10 µM, 48 h",growth,88.3%
